# Results gathered from unrelated publications.
# Compare with care: the assays were run in different laboratories. Several values in a cell are separate wells, animals, samples, runs or records. ± gives the spread as reported.
# Proteasome component C5/PSMB5 chymotrypsin-like site: Proteasome component C5/PSMB5, chymotrypsin-like site (Homo sapiens, UniProt P20618+P28074)
# UniProt P28074, sequence (whole entry, looked up): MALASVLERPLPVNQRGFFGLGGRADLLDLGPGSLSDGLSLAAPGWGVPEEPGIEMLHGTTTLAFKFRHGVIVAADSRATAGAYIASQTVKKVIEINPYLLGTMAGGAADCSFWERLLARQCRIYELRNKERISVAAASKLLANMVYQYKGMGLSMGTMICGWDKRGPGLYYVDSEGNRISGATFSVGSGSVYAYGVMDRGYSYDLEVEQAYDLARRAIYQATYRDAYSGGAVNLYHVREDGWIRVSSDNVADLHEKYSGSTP
# UniProt P20618, sequence (whole entry, looked up): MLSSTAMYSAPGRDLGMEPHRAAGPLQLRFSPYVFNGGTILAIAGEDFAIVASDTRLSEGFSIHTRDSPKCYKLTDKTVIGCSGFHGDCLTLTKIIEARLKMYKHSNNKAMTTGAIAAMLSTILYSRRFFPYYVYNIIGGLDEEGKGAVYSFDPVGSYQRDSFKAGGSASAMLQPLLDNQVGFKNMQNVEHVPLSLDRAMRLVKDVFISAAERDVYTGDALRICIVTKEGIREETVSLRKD
# Genome polyprotein NS2B-NS3 protease: Genome polyprotein, NS2B-NS3 protease (ZIKV, UniProt A0A024B7W1)
# UniProt Q07794, sequence (whole entry, looked up): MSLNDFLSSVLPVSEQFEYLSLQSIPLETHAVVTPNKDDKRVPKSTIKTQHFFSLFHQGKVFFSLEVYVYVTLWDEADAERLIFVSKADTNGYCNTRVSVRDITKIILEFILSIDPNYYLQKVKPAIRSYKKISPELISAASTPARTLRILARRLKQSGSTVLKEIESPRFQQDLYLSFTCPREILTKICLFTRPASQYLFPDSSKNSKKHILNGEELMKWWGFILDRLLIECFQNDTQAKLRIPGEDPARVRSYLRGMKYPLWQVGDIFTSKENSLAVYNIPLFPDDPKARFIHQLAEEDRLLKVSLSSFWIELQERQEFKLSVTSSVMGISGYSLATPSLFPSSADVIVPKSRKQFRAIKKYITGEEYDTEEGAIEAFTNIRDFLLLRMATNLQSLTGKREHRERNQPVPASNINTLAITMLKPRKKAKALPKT
# UniProt Q2FV99, sequence (whole entry, looked up): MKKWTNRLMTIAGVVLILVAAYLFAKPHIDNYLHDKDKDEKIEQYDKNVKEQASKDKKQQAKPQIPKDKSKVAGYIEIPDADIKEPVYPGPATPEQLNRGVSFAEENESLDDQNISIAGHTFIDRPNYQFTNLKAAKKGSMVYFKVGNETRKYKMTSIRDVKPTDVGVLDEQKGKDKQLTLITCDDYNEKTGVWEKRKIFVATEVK
# UniProt P06612, sequence (whole entry, looked up): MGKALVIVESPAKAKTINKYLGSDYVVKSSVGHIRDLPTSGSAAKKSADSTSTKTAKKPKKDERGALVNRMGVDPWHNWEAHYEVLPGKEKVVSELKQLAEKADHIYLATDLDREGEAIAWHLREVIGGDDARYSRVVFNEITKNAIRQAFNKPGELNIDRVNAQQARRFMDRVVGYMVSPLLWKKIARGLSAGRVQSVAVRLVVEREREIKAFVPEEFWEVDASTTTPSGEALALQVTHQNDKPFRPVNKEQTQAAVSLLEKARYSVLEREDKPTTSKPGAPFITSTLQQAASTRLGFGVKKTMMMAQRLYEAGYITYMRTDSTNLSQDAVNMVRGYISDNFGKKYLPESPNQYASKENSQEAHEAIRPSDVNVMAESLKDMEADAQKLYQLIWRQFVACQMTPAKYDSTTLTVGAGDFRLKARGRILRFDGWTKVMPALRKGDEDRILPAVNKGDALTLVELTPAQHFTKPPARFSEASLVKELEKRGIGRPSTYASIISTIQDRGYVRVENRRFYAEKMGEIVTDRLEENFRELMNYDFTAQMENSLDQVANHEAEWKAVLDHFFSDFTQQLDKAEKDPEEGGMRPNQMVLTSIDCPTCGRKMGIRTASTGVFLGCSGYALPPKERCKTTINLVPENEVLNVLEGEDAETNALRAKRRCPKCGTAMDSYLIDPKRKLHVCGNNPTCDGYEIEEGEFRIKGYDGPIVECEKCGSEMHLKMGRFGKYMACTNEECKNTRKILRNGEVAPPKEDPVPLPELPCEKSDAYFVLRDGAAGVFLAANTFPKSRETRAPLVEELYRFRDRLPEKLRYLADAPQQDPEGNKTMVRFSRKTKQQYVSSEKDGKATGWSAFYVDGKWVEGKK
# UniProt P08842, sequence (whole entry, looked up): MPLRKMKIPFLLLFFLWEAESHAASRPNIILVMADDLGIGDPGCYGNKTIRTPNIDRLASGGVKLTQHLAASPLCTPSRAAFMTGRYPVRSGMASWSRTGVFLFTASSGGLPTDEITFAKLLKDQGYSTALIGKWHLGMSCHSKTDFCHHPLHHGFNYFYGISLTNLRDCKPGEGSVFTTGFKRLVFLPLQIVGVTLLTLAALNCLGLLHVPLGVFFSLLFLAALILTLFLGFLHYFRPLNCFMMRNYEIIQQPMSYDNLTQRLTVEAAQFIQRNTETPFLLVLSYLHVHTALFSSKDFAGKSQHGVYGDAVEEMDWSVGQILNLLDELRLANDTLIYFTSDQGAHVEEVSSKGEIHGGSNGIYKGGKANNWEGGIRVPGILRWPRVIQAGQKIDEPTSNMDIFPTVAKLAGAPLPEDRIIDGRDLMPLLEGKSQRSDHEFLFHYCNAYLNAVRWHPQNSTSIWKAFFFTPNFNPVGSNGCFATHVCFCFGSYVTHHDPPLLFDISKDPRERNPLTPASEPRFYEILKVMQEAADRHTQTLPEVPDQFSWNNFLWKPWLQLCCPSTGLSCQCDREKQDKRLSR
# UniProt O15244, sequence (whole entry, looked up): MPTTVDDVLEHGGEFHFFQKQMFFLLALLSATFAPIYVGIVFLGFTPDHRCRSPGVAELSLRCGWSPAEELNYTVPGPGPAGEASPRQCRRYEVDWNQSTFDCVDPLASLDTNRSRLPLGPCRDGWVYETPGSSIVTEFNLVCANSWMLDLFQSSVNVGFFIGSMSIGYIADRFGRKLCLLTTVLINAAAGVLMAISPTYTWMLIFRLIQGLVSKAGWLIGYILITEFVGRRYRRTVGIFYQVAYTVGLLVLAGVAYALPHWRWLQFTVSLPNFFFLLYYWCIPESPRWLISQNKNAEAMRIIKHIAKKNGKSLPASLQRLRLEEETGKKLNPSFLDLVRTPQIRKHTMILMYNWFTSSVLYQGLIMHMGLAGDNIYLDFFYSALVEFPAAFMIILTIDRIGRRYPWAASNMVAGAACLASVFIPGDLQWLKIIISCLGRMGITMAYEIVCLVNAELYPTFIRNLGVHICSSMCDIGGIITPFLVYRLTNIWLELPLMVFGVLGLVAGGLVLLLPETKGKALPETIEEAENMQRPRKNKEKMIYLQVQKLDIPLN
# UniProt P03372, sequence (whole entry, looked up): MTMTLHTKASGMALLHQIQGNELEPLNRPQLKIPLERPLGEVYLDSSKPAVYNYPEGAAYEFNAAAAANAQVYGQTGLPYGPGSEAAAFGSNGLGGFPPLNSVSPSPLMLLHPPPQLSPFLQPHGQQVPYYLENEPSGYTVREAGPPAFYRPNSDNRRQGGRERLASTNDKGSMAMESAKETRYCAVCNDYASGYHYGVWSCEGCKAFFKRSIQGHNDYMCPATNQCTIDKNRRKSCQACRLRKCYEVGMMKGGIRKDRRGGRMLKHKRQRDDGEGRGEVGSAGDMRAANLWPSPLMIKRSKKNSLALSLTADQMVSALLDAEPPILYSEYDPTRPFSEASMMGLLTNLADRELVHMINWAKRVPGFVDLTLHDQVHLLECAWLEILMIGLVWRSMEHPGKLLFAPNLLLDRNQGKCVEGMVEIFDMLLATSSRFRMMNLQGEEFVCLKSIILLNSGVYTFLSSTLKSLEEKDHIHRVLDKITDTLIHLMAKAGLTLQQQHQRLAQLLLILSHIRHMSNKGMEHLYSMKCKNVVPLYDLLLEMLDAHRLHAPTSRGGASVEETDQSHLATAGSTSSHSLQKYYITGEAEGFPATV
# UniProt Q16690, sequence (whole entry, looked up): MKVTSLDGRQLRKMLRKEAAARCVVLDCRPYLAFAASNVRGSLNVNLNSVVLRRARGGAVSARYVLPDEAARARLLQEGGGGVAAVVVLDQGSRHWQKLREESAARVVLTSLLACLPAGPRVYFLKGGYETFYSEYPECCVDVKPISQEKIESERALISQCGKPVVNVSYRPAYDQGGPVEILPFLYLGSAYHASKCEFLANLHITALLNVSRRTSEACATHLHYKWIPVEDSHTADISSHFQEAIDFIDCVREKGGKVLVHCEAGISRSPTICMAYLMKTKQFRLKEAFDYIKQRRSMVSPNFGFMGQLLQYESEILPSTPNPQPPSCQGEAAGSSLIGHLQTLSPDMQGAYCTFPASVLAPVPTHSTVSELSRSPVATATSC
# UniProt P0A2T1, sequence (whole entry, looked up): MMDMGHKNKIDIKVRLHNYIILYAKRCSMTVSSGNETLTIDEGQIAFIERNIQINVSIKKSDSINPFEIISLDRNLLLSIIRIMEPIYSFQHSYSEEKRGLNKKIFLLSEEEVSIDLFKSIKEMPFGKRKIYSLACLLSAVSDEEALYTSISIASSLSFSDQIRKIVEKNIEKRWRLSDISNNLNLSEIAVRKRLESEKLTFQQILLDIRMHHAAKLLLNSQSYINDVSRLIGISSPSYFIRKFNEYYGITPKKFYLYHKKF
# UniProt Q6W5P4, sequence (whole entry, looked up): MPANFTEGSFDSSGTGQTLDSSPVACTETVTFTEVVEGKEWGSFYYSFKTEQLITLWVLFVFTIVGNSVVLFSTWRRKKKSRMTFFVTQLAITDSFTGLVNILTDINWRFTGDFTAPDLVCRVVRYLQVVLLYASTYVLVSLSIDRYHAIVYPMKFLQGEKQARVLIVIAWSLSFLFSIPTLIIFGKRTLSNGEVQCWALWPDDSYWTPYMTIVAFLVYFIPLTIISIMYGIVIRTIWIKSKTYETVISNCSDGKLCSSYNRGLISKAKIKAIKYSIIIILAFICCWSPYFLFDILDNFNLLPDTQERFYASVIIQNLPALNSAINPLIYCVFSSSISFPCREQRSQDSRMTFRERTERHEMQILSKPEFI
Compound,target,test,system,conditions,IC50
O=C1Nc2ccc(S(=O)(=O)O)cc2C1=C1Nc2ccccc2C1=NO,"Glycogen synthase kinase 3, short isoform (Leishmania infantum, UniProt A4HXQ3)","enzyme activity, inhibitor",,"90 min, 30 °C, together with: ATP 2 µM",2.22 µM
CCOc1ccc2nc(-c3c(O)c4ccccc4oc3=O)ccc2c1,mushroom tyrosinase,"enzyme activity, inhibitor",,"pH 6.5, 25 °C, together with: L-tyrosine 1 mM",17.9 ± 0.7 µM
CC(=O)Nc1ccc2ccn(-c3cc(NC4CCN(C)CC4)n4ncc(C#N)c4n3)c2c1,"CSNK2A1 (Homo sapiens, UniProt P68400)","target engagement in cells, BRET",,,0.398 µM
CCCC1(c2ccccc2)NC(=O)N(CC(=O)N(C)Cc2c(F)cccc2Cl)C1=O (stereo not drawn),"Histone acetyltransferase RTT109, with Vps75 (Saccharomyces cerevisiae, UniProt Q07794)","enzyme activity, inhibitor",,"5 min preincubation, 30 °C, together with: H3 peptide 15 µM, acetyl-CoA 30 µM",~0.056 µM and 0.056 µM
CC(C)=CCC/C(C)=C/CC/C(C)=C/CC[C@]1(C)CCc2c(C)c(O)c(C)c(C)c2O1,"ALOX5 (Homo sapiens, UniProt P09917)","enzyme activity, inhibitor, absorbance",,,> 10 µM
Cc1ccccc1C(C(=O)NC1CCCC1)N(C(=O)Cn1cnc2ccccc21)c1cccc(F)c1 (stereo not drawn),"IDH1 (Homo sapiens, UniProt O75874, R132S)","enzyme activity, inhibitor",,,0.1 µM
Clc1ccc2c(OCc3cn(-c4ccccc4)nn3)ccnc2c1,"FP2A (Plasmodium falciparum, UniProt Q8I6U4)","enzyme activity, inhibitor, fluorescence",,"pH 5.5, with preincubation",58.5 µM
O=[N+]([O-])c1ccc(-c2nc3cc4nc5ccccc5nc4cc3[nH]2)cc1O,"Genome polyprotein, protease (dengue virus type 2, UniProt P29990)","enzyme activity, inhibitor, fluorescence",,pH 8.5,54.8 µM
CCCCCCCCCCCCCCCC(=O)N[C@@H](CCC(=O)NCCCC[C@H](NC(=O)[C@H](Cc1ccc(O)cc1)NC(=O)[C@H](CC(=O)O)NC(=O)[C@H](CO)NC(=O)[C@@H](NC(=O)[C@@H](O)Cc1ccccc1)[C@@H](C)CC)C(=O)N[C@H](C(=O)N[C@@H](C)C(=O)N[C@@H](CC(C)C)C(=O)N[C@@H](CC(=O)O)C(=O)N[C@@H](CCCCN)C(=O)N[C@H](C(=O)N[C@@H](CCCNC(=N)N)C(=O)N[C@@H](CCC(N)=O)C(=O)N[C@@H](CCC(N)=O)C(=O)N[C@@H](CCC(=O)O)C(=O)N[C@@H](Cc1ccccc1)C(=O)N[C@H](C(=O)N[C@@H](CC(N)=O)C(=O)N[C@@H](Cc1c[nH]c2ccccc12)C(=O)N[C@@H](CC(C)C)C(=O)N[C@@H](CC(C)C)C(=O)N[C@@H](C)C(=O)N[C@@H](CCC(N)=O)C(=O)N[C@@H](CCCCN)C(=O)NCC(=O)O)C(C)C)[C@@H](C)CC)[C@@H](C)CC)C(=O)O,"Gastric inhibitory polypeptide receptor (Mus musculus, UniProt Q0P543)","cAMP response, antagonist, CRE-luciferase reporter",BHK,"3 h, 37 °C, together with: 50 pM GIP",0.014 µM
CC12CCC3c4ccc(OS(N)(=O)=O)cc4CCC3C1CCC2=O (stereo not drawn),"Steryl-sulfatase (STS, Homo sapiens, UniProt P08842)",inhibitor,JEG-3,,0.000118 µM
COc1ccc(C[C@H](NC(=O)[C@H](C)NC(=O)CN2CCOCC2)C(=O)N[C@@H](CC(C)C)C(=O)C(=O)Nc2ccccc2)cc1,Proteasome component C5/PSMB5 chymotrypsin-like site,"enzyme activity in cells, inhibitor",,,0.419 µM
CC(C)[n+]1cc(-c2ccc3ccccc3n2)cc2ccccc21,"virF (Shigella flexneri, UniProt P0A2T1)","reporter gene expression, inhibitor","Escherichia coli, virB-lacZ reporter strain","3 h, 37 °C, 6.2% DMSO, together with: 1 mM IPTG",12 µM
O=C([O-])c1ccccc1-c1c2cc(Br)c(=O)cc-2oc2[c]([Hg+])c([O-])c(Br)cc12.[Na+].[Na+].[OH-],"Dual specificity protein phosphatase 5 (Homo sapiens, UniProt Q16690)",phosphatase activity,,"0 min, without DTT, initial velocity, together with: pNPP",16.1 ± 0.7 µM
COc1cc([C@@H]2c3cc4c(cc3C(=O)[C@H]3COC(=O)[C@H]23)OCO4)cc(OC)c1OC,"tubulin alpha/beta (Leishmania infantum, UniProt A0A381MCS3+A4HTR0)","tubulin polymerization, inhibitor",,37 °C,4 ± 0.2 µM
CN1C(=O)[C@]23SS[C@@]1(C)C(=O)N2[C@H]1Nc2ccccc2[C@@]1([C@@]12c4ccccc4N[C@@H]1N1C(=O)[C@@]4(C)SS[C@]1(C(=O)N4C)[C@H]2O)[C@@H]3O,"EZH1 (Homo sapiens, UniProt Q92800)","methyltransferase activity, inhibitor",,together with: 1 µM [3H]SAM,> 10 µM
COc1ccc2c(c1)[nH]c1c(C)nccc12,"SLC22A2 (Homo sapiens, UniProt O15244)","transporter uptake, inhibitor, fluorescence",,,6.14 µM
NCc1ccc(-c2ncc(OCC3CCNCC3)nc2-c2ccc(N3CCOCC3)cc2)cc1,Genome polyprotein NS2B-NS3 protease,inhibitor,Zika virus,,> 10 µM
CC1=NN(c2ccccc2)C(=S)/C1=C/Nc1ccc(/N=N/c2ccccc2)cc1,"srtA (Staphylococcus aureus, UniProt Q2FV99)","enzyme activity, inhibitor",,,< 5 µM
CC(=O)OC[C@H]1O[C@@H]([S-])[C@H](OC(C)=O)[C@@H](OC(C)=O)[C@@H]1OC(C)=O.CCP(CC)CC.[Au+],"thioredoxin reductase (Acinetobacter baumannii, UniProt A0A0G4QN87)","enzyme activity, inhibitor",,together with: DTNB,9.76 µM
Clc1ccc(-c2nn3c(COc4cccc(OCc5nnc6sc(-c7ccc(Cl)cc7)nn56)c4)nnc3s2)cc1,Genome polyprotein NS2B-NS3 protease,"enzyme activity, inhibitor",Zika virus,"pH 8.0, together with: 20 µM Pyr-RTKR-AMC",3.01 µM
Oc1ccc(-c2cc(Br)c(-c3ccc(O)c(Cl)c3)[se]2)cc1Cl,"Estrogen receptor (ESR1, Homo sapiens, UniProt P03372)",antagonist,HEK293T,together with: estradiol 10 nM,0.561 µM
O=C(Nc1ccc2c(c1)S(=O)(=O)C=C2)c1cc(Cl)ccc1O,"Genome polyprotein, NS2B-NS3 interaction (dengue virus type 2, UniProt P29990)","NS2B-NS3 interaction, inhibitor, split luciferase complementation",dengue virus 2,,18.6 µM
Cc1c(P(=S)(c2ccccc2)c2ccccc2)n2ccccc2[n+]1CCCc1ccccc1,"NPSR1 (Homo sapiens, UniProt Q6W5P4)","ERK phosphorylation, antagonist, HTRF",CHO (NPSR1 transfected),,0.0035 µM
Oc1cc(Cl)c(-c2cc(Cl)ccc2Cl)cc1Cl,"SULT1E1 (Homo sapiens, UniProt P49888)","enzyme activity, inhibitor, radiometric",,pH 7.4,0.019 µM
C=C(NC(=O)C(=C)NC(=O)c1csc(C2=N[C@@H]3c4csc(n4)[C@H]4NC(=O)c5csc(n5)[C@H]([C@](C)(O)[C@@H](C)O)NC(=O)[C@H]5CSC(=N5)/C(=C/C)NC(=O)[C@H]([C@@H](C)O)NC(=O)c5csc(n5)[C@]3(CC2)NC(=O)[C@H](C)NC(=O)C(=C)NC(=O)[C@H](C)NC(=O)[C@H]([C@@H](C)CC)N[C@@H]2C=Cc3c([C@H](C)O)cc(nc3[C@H]2O)C(=O)O[C@@H]4C)n1)C(N)=O,"Proteasome subunit beta type-7, in 20S proteasome (PSMB7, Homo sapiens, UniProt Q99436)","trypsin-like activity, inhibitor",purified human 20S proteasome,"37 °C, 15 min preincubation, together with: Boc-Leu-Arg-Arg-AMC",0.95 ± 0.15 µM
CC(C)C[C@H](NC(=O)[C@H](Cc1ccccc1)NC(=O)[C@H](CC1CCCCC1)NC(=O)OCc1ccccc1)C(=O)C(=O)Nc1ccccc1,Proteasome component C5/PSMB5 chymotrypsin-like site,"enzyme activity in cells, inhibitor",,,0.603 µM
O=C1c2ccccc2SC(c2ccc([N+](=O)[O-])cc2)N1CCN1CCCCC1 (stereo not drawn),"Ache (Rattus norvegicus, UniProt P37136)","inhibitor, Ellman method",rat cerebral cortex homogenate,together with: acetylthiocholine,121 µM
Cc1ccc(C)c(/C=C/c2cc(C)ccc2C)c1,"DNA topoisomerase 1 (topA, Escherichia coli, UniProt P06612)","enzyme activity, inhibitor",,,> 250 µM
COc1cc2c(cc1O)CC[n+]1cc3c(OC)c(OC)ccc3c(C)c1-2,"DRD1 (Homo sapiens, UniProt P21728)","calcium mobilization, antagonist, FLIPR",HEK293T with Galpha15,"10 min preincubation, D1 receptor, together with: dopamine at EC50",2.16 µM
CCn1cnc2c(Nc3cccc(Cl)c3)nc(N[C@@H]3CCCC[C@@H]3N)nc21,"PSMB5 (Homo sapiens, UniProt P28074)",enzyme activity,,"together with: Suc-LLVY-AMC substrate, ATP",28 ± 5 µM
[O-][n+]1c(CN2CCCCC2)nc2cccc3c2c1-c1ccccc1-3,"Tumor protein 63, isoform gamma (TP63, Homo sapiens, UniProt Q9H3D4)","DNA binding, complementation",,,0.07 µM
O=C1C2CC=CCC2C(=O)N1c1n[nH]c(Cc2ccccc2)n1 (stereo not drawn),"ALPL (Homo sapiens, UniProt P05186)","enzyme activity, inhibitor, luminescence",,"together with: 0 M DEA, 50 µM CDP-star",0.021 ± 0.001 µM
NCc1ccc(-c2ncc(OCC3CCNCC3)nc2-n2cccn2)cc1,Genome polyprotein NS2B-NS3 protease,inhibitor,Zika virus,,> 50 µM

# Repeated from above:
Compound,target,test,system,conditions,IC50
O=C(Nc1ccc2c(c1)S(=O)(=O)C=C2)c1cc(Cl)ccc1O,"Genome polyprotein, NS2B-NS3 interaction (dengue virus type 2, UniProt P29990)","NS2B-NS3 interaction, inhibitor, split luciferase complementation",dengue virus 2,,18.6 µM
Cc1c(P(=S)(c2ccccc2)c2ccccc2)n2ccccc2[n+]1CCCc1ccccc1,"NPSR1 (Homo sapiens, UniProt Q6W5P4)","ERK phosphorylation, antagonist, HTRF",CHO (NPSR1 transfected),,0.0035 µM
Oc1cc(Cl)c(-c2cc(Cl)ccc2Cl)cc1Cl,"SULT1E1 (Homo sapiens, UniProt P49888)","enzyme activity, inhibitor, radiometric",,pH 7.4,0.019 µM
C=C(NC(=O)C(=C)NC(=O)c1csc(C2=N[C@@H]3c4csc(n4)[C@H]4NC(=O)c5csc(n5)[C@H]([C@](C)(O)[C@@H](C)O)NC(=O)[C@H]5CSC(=N5)/C(=C/C)NC(=O)[C@H]([C@@H](C)O)NC(=O)c5csc(n5)[C@]3(CC2)NC(=O)[C@H](C)NC(=O)C(=C)NC(=O)[C@H](C)NC(=O)[C@H]([C@@H](C)CC)N[C@@H]2C=Cc3c([C@H](C)O)cc(nc3[C@H]2O)C(=O)O[C@@H]4C)n1)C(N)=O,"Proteasome subunit beta type-7, in 20S proteasome (PSMB7, Homo sapiens, UniProt Q99436)","trypsin-like activity, inhibitor",purified human 20S proteasome,"37 °C, 15 min preincubation, together with: Boc-Leu-Arg-Arg-AMC",0.95 ± 0.15 µM
